# Earlier results that unrelated publications cite.
# Numbers after ± are the reported error.
Structure (SMILES),test system,setting,solubility
CCCSc1ccc2nc(NC(=O)OC)[nH]c2c1,,pH 4.1,~2 µg/mL
CCCSc1ccc2nc(NC(=O)OC)[nH]c2c1,intestinal fluid,,~1 µg/mL
CC(=O)C[C@@H](c1ccccc1)c1c(O)c2ccccc2oc1=O,,,4 µg/mL
O=C(O)c1cc(-c2ccc([C@H]3C[C@H]4C[C@@H]3CN4)cc2)c2ccc(-c3ccc(C(F)(F)F)cc3)cc2c1,,pH 7.4,0.77 ± 0.21 µg/mL
O=c1c2ccccc2[se]n1-c1ccccc1,water,,< 1000 µg/mL
Cc1ncc2n1-c1ccc(Cl)cc1C(c1ccccc1F)=NC2,,,1 µg/mL
Cn1cc(C2=C(c3cn(C4CCN(Cc5ccccn5)CC4)c4ccccc34)C(=O)NC2=O)c2ccccc21,water,,< 1000 µg/mL
Cc1ccnc(OC2CCOC3(CCN(C(=O)C4(c5ccccc5)CCCC4)CC3)C2)c1 (centres unmarked),,concentration not given,14 µM
